Assay results of several laboratories.
Protocols differ between the studies behind these lines. Numbers after ± are the reported error.
inhA: Enoyl-[acyl-carrier-protein] reductase [NADH] (inhA, Mycobacterium tuberculosis, UniProt P9WGR1)
4'-phosphopantetheinyl transferase PptT: 4'-phosphopantetheinyl transferase PptT (Mycobacterium tuberculosis, UniProt O33336)
ACHE: Acetylcholinesterase (ACHE, Homo sapiens, UniProt P22303)
ache: Acetylcholinesterase (ache, Electrophorus electricus, UniProt O42275)
TDP1: Tyrosyl-DNA phosphodiesterase 1 (TDP1, Homo sapiens, UniProt Q9NUW8)
BCHE: Cholinesterase (BCHE, Homo sapiens, UniProt P06276)

Amino acid sequences for entries named in this document (tags omitted). Residues count along the entry.
UniProt P9WGR1, whole entry: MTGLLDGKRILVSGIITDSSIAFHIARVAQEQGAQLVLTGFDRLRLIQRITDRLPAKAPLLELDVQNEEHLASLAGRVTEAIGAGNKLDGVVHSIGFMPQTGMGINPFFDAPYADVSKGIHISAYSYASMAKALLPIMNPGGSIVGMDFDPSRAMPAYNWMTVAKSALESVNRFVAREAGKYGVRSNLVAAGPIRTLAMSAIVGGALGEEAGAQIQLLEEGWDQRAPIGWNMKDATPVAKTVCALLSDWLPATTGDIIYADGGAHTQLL
UniProt P22303, whole entry, looked up: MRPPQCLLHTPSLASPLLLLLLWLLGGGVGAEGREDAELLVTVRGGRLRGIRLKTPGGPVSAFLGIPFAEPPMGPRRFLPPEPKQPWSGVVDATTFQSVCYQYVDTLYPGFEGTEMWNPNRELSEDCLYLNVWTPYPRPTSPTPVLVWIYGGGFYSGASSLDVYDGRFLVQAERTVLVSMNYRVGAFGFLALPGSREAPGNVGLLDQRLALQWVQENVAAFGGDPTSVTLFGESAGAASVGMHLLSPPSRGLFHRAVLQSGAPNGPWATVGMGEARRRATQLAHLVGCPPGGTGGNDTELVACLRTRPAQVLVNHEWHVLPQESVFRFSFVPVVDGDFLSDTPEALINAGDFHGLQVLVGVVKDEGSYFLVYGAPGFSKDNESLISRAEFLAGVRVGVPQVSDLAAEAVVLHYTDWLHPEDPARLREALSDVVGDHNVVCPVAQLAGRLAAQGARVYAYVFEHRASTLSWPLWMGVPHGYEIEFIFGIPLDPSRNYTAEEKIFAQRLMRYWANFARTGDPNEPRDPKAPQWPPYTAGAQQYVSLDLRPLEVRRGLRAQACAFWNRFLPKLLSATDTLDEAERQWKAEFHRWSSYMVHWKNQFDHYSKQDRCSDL
UniProt O42275, whole entry, looked up: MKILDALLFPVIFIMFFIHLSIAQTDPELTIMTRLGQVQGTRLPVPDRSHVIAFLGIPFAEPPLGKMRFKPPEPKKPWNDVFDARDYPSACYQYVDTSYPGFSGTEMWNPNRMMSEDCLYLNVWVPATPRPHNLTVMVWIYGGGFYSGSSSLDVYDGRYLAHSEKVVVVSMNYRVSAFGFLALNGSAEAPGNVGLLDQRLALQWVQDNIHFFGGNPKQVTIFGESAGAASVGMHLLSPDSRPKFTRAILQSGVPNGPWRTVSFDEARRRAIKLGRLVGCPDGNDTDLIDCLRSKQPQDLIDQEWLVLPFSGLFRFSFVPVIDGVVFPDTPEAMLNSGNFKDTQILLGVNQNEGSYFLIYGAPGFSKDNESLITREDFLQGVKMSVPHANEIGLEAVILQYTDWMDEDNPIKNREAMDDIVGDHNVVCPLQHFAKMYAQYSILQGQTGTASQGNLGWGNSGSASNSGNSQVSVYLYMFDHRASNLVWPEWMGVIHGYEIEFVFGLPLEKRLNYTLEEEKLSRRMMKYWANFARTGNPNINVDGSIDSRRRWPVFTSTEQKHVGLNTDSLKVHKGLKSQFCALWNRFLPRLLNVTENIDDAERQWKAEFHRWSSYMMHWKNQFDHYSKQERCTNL
UniProt P06276, whole entry, looked up: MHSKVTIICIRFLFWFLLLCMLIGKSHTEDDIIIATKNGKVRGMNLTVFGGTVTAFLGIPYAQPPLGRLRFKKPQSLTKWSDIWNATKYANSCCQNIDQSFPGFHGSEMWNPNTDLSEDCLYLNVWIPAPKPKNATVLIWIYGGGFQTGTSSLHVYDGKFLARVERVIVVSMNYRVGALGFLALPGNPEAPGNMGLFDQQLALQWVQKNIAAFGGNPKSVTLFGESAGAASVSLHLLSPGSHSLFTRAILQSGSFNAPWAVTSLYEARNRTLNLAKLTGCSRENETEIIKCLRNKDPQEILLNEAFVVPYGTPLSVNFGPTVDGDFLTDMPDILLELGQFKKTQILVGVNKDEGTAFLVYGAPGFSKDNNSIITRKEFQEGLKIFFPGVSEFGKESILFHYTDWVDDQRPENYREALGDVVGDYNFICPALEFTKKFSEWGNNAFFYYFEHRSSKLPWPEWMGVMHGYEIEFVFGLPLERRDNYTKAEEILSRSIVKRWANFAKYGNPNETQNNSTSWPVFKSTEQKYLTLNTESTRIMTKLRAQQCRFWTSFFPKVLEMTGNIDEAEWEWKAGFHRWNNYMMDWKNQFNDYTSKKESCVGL
UniProt P36544, 23-502 limits assumed: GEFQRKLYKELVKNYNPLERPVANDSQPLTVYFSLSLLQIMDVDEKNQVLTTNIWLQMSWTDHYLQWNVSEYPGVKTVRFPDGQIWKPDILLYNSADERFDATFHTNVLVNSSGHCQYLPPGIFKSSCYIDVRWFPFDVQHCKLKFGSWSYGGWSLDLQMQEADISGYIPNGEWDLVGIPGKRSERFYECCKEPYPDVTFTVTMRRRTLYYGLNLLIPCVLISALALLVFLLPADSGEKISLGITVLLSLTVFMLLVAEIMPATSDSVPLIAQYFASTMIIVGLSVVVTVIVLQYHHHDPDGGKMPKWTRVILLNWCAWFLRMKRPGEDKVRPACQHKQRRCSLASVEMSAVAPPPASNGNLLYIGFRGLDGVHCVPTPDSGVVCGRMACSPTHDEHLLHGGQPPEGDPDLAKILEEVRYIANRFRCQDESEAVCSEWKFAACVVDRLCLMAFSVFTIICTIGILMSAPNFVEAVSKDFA
UniProt P9WFX1, whole entry: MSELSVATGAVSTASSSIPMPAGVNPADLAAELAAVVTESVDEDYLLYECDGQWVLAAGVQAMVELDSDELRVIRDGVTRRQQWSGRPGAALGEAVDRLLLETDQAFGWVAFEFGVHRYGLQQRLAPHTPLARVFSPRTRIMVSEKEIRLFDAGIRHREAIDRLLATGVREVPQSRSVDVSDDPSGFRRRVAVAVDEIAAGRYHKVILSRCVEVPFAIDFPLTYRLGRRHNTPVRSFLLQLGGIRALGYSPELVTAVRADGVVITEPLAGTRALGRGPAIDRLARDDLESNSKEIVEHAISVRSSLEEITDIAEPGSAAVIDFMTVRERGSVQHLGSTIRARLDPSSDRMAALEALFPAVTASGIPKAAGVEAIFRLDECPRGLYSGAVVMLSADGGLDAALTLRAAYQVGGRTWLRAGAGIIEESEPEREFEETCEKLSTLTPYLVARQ
UniProt I6WXK4, whole entry: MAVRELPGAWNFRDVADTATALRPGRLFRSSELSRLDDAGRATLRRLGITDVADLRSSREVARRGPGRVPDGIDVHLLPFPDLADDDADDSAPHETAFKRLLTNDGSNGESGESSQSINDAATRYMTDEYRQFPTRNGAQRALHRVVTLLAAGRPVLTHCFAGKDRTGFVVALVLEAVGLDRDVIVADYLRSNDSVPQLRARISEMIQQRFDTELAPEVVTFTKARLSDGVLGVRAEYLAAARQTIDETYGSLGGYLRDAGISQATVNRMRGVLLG
UniProt P9WHR3, 31-520 limits assumed: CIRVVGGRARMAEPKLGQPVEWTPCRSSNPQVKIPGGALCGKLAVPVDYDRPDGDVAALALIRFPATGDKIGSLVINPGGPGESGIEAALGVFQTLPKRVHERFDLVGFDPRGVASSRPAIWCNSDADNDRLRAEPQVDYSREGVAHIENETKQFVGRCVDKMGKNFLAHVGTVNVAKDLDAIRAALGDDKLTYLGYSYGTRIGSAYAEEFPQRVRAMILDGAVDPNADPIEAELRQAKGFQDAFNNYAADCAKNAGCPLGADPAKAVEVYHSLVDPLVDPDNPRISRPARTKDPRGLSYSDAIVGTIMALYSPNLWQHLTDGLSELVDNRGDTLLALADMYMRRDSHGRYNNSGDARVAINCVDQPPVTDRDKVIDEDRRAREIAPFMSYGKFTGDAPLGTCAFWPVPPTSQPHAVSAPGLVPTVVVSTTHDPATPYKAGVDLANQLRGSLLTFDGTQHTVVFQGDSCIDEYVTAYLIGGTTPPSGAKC
UniProt Q9GZZ6, 25-450 limits assumed: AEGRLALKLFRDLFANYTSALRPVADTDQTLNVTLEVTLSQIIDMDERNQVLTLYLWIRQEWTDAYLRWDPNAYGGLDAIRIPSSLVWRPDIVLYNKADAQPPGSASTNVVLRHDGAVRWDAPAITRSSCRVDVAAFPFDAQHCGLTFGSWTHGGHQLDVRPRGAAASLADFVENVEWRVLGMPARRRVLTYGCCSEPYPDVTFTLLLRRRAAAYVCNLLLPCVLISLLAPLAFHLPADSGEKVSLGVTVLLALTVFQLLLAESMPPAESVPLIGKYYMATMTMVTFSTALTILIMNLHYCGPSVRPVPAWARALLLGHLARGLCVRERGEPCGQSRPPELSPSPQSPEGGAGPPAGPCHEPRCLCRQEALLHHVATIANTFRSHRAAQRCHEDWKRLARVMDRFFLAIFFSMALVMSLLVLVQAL
UniProt Q9UGM1, 26-479 limits assumed: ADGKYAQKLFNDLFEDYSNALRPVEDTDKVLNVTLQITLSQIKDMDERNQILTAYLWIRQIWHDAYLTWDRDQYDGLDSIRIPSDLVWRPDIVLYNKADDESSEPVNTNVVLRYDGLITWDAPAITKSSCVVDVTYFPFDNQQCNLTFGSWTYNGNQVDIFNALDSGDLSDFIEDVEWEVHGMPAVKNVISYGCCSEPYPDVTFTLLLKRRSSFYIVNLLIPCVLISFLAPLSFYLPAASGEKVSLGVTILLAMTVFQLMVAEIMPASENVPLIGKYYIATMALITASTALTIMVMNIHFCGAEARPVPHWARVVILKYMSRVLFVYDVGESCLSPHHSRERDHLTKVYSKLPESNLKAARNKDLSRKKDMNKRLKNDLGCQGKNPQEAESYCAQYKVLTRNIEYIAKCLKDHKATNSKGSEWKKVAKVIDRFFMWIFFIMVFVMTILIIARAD
UniProt O15393, whole entry S251D/R252D/Q253D/S254D/R255K, looked up: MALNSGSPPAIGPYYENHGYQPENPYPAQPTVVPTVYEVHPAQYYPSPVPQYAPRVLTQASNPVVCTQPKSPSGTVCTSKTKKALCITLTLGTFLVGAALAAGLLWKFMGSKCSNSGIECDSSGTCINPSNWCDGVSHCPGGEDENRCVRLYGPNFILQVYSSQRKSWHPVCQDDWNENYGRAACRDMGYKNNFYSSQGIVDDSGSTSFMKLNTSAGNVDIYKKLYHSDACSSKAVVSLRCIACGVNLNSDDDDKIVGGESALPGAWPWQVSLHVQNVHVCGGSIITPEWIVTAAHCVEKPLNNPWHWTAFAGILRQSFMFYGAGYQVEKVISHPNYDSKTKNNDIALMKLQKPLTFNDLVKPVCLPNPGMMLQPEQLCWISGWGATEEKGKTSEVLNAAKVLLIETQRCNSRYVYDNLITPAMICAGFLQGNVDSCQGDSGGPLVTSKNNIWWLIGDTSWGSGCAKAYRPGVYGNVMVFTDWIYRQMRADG
UniProt P81947, whole entry: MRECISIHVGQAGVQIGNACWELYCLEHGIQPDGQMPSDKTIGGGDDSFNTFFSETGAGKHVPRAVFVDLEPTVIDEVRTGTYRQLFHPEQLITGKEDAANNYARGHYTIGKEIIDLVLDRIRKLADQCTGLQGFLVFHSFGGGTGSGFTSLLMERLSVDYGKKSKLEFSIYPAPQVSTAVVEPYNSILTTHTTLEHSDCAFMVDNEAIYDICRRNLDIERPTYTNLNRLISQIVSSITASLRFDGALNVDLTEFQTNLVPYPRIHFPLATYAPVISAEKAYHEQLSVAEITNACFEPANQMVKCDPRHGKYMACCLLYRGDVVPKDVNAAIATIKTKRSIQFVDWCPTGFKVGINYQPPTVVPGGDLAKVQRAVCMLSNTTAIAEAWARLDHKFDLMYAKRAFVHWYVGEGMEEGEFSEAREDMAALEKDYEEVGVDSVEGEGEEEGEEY
UniProt Q9P0L9, whole entry F514A: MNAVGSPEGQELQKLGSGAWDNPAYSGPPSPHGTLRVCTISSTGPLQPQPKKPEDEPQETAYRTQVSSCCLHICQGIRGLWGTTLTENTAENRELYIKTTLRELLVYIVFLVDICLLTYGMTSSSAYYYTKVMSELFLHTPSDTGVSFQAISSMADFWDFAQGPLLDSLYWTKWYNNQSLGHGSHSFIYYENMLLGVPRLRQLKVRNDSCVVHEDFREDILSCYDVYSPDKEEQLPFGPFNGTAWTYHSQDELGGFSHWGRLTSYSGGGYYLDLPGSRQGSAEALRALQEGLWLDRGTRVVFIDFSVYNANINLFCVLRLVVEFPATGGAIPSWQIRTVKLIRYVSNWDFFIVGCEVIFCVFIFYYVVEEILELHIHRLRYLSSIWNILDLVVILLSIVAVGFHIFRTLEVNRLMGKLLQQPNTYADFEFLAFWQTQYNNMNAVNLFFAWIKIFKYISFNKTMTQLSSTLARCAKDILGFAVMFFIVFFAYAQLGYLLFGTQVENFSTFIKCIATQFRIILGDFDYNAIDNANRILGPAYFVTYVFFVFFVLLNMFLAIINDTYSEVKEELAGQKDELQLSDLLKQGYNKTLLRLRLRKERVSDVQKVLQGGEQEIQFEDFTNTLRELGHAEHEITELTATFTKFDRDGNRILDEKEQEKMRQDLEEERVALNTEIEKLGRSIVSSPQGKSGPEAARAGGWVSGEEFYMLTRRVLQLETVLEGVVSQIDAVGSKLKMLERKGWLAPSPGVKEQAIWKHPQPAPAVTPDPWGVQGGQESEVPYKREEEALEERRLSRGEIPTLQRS

Structure (SMILES)	target	assay	test system	setting	IC50
Oc1cc(-c2nn[nH]n2)ccc1Oc1ccc(Cl)cc1Cl	inhA	inhibitor			> 10000 nM
O=C(CC1CC2CCC1C2)Nc1nnc(-c2ccccc2Cl)s1 (stereo not drawn)	inhA				4000 ± 1000 nM
O=c1c2ccccc2[nH]c(=S)n1Cc1cccnc1	4'-phosphopantetheinyl transferase PptT	enzyme activity, inhibitor, fluorescence polarization			790 nM
C[C@@H]1NC(=O)[C@H](Cc2ccccc2)NC(=O)[C@H](CCCNC(=N)N)NC(=O)[C@@H]2CCCN2C(=O)[C@H](CC(=O)O)NC(=O)[C@H](CO)NC(=O)[C@@H](NC(=O)[C@H](Cc2cnc[nH]2)NC(=O)CN)CSSC[C@@H](C(N)=O)NC(=O)[C@H](CCCNC(=N)N)NC(=O)[C@H](Cc2c[nH]c3ccccc23)NC1=O	CHRNA7 (Homo sapiens, UniProt P36544)	ACh-evoked current, inhibitor, two-electrode voltage clamp	Xenopus laevis oocytes	with: 100 µM ACh	9590 ± 620 nM
c1cc[n+](CCCCCCCCCC[n+]2cccc3ccccc32)cc1	ACHE	enzyme activity, inhibitor			5 ± 1 nM
O=C(O)c1ccc(-c2ccc([N+](=O)[O-])cc2Cl)o1	mbtI (Mycobacterium tuberculosis, UniProt P9WFX1)	enzyme activity, inhibitor			17900 ± 3200 nM
c1cc(C2CCNCC2)c2ccncc2c1	ache	enzyme activity, inhibitor, Ellman		10 min preincubation, pH 8, 23 °C	220000 ± 10000 nM
N#Cc1ccc(-c2ccc(COCCc3ccc(-c4nc5ccccn5c4Nc4ccc(C(=O)O)cc4)cc3)cc2)nc1	TDP1	enzyme activity, inhibitor			25100 ± 1250 nM
Oc1cc(-c2cccnc2)ccc1Oc1ccc(Cl)cc1Cl	inhA	inhibitor			> 10000 nM
O=C(O)c1cc2cc(Cl)cc(OCc3cn(CCC(=O)N4CCC(c5ccc(Cl)c(Cl)c5)CC4)nn3)c2c(Cl)c1OCc1cn(CCC(=O)N2CCC(c3ccc(Cl)c(Cl)c3)CC2)nn1	ptpB (Mycobacterium tuberculosis, UniProt I6WXK4)	inhibitor		pH 7	160 ± 10 nM
C(=N\N1CCN(Cc2cccc3ccccc23)CC1)/c1ccccc1	ache	enzyme activity, inhibitor, Ellman		10 min preincubation, pH 8, 23 °C	985000 ± 309000 nM
CC[C@H](C)[C@@H]1NC(=O)[C@H](Cc2c[nH]cn2)NC(=O)[C@H](Cc2ccc(O)cc2)NC(=O)[C@H](Cc2ccc(O)cc2)NC(=O)[C@H](C(C)C)NC(=O)[C@H](Cc2c[nH]cn2)NC(=O)[C@H](CCCCN)NC(=O)[C@H]([C@@H](C)O)NC(=O)[C@H](Cc2ccc(O)cc2)NC(=O)CSC[C@@H](C(N)=O)NC(=O)[C@H](Cc2ccc(O)cc2)NC(=O)[C@H](C(C)C)NC(=O)[C@H](CC(C)C)NC(=O)[C@H](Cc2ccc(O)cc2)NC(=O)[C@H]([C@@H](C)CC)NC(=O)[C@H]([C@@H](C)O)NC1=O	Procathepsin L (CTSL, Homo sapiens, UniProt P07711)	enzyme activity, inhibitor			5700 ± 450 nM
Cc1ccc(Oc2ccc(Cl)cc2Cl)c(O)c1	inhA	inhibitor			800 ± 99 nM
NCCCC[C@H](NC(=O)OCC1c2ccccc2-c2ccccc21)C(=O)Nc1ccc2c(Cl)c(OCCBr)oc(=O)c2c1	hip1 (Mycobacterium tuberculosis, UniProt P9WHR3)	protease activity, inhibitor, chemiluminescence			270 nM
CC(C)(C)c1cc[n+](CCCCCCCC[n+]2ccc(C(C)(C)C)cc2)cc1	BCHE	enzyme activity, inhibitor			20 ± 3 nM
C[C@@H]1NC(=O)[C@H](CCCNC(=N)N)NC(=O)[C@H](CCCNC(=N)N)NC(=O)[C@@H]2CCCN2C(=O)[C@H](CO)NC(=O)[C@@H]2CSSC[C@H](NC(=O)CN)C(=O)N[C@@H](CSSC[C@@H](C(N)=O)NC(=O)[C@H](CO)NC(=O)[C@H](CCCNC(=N)N)NC1=O)C(=O)N[C@@H](CO)C(=O)N[C@@H](Cc1c[nH]cn1)C(=O)N1CCC[C@H]1C(=O)N[C@@H](C)C(=O)N2	Neuronal acetylcholine receptor; alpha9/alpha10 (Homo sapiens, UniProt Q9GZZ6+Q9UGM1)	ion current, antagonist, two-electrode voltage clamp	Xenopus oocytes	holding -70 mV, with: 100 µM acetylcholine	1120 nM
CC(C)(C)c1cc[n+](COC[n+]2ccc(C(C)(C)C)cc2)cc1	BCHE	enzyme activity, inhibitor			75000 ± 12000 nM

Structure (SMILES)	target	assay	test system	setting	IC50
O=C(O)c1ccc(Oc2ccc(Cl)cc2Cl)c(O)c1	inhA	inhibitor			> 10000 nM
COc1ccccc1CCN1CCC(CN(C)Cc2ccncc2)CC1	ache	enzyme activity, inhibitor, Ellman		10 min preincubation, pH 8, 23 °C	481000 ± 36000 nM
CCC(C)Cc1ccc(Oc2ccc(Cl)cc2Cl)c(O)c1 (stereo not drawn)	inhA	inhibitor			130 ± 56 nM
c1ccc2c[n+](CCCCCCCC[n+]3ccc4ccccc4c3)ccc2c1	BCHE	enzyme activity, inhibitor			400 ± 60 nM
C#CCN(Cc1ccc2nc(C)[nH]c(=O)c2c1)c1ccc(C(=O)N[C@@H](CCC(=O)OCC)C(=O)OCC)cc1	4'-phosphopantetheinyl transferase PptT	enzyme activity, inhibitor, fluorescence polarization			10000 nM
CC(C)(C)O[C@@H]1C[C@@H](C(=O)N[C@H](Cc2ccccc2)C(=O)C(=O)NCc2ccc(Cl)cn2)N(C(=O)[C@@H](NC(=O)C2CCC(F)(F)CC2)C2CCCCC2)C1	TMPRSS2 (Homo sapiens, UniProt O15393, Q253D/R252D/R255K/S251D/S254D)	enzyme activity, inhibitor			> 500000 nM
CC[C@H](C)[C@@H]([C@@H](CC(=O)N1CCC[C@H]1[C@H](OC)[C@@H](C)C(=O)NCCc1ccccc1)OC)N(C)C(=O)[C@@H](NC(=O)[C@H](C(C)C)N(C)C)C(C)C [isotope labelled]	Tubulin alpha-1B chain/TUBB2B (Bos taurus, UniProt P81947+Q6B856)	tubulin polymerization, inhibitor		30 min, 37 °C, with: monosodium glutamate	1200 nM
N#Cc1ccc(-c2ccc(COCCc3ccc(-c4nc5cc(-c6ccccc6)ccn5c4Nc4ccc(C(=O)O)cc4)cc3)cc2)nc1	TDP1	enzyme activity, inhibitor			2750 ± 250 nM
CCCCc1ccc(Oc2ccc(Cl)cc2Cl)c(O)c1	inhA	inhibitor			55 ± 20 nM
CCCNC(C)Cc1ccccc1 (stereo not drawn)	Slc6a3 (Rattus norvegicus, UniProt P23977)	dopamine uptake, inhibitor	rat brain synaptosomes	with: [3H]dopamine	1010 ± 101 nM
c1cc[n+](CCCCCCCCCC[n+]2ccccc2)cc1	BCHE	enzyme activity, inhibitor			5000 ± 800 nM
CN(C(=O)Cc1ccc(Cl)c(Cl)c1)C1CCCCC1N1CCCC1 (stereo not drawn)	PKD2L1 (Homo sapiens, UniProt Q9P0L9, F514A)	tail current, inhibitor, automated patch clamp		mutant F514A	1000 nM
CC(C)CCc1ccc(Oc2ccc(Cl)cc2Cl)c(O)c1	inhA	inhibitor			63 ± 9 nM
O=C(Nc1c(F)cncc1F)c1nn(Cc2ccc(Cl)cc2Cl)c2ccccc12	Calcium release-activated calcium channel protein 1, with STIM1 (Rattus norvegicus, UniProt Q5M848)	Ca2+ influx, inhibitor	RBL-2H3	with: thapsigargin 1 µM	> 30000 nM
c1ccc2c(c1)ccc[n+]2CCCCCCCCCC[n+]1cccc2ccccc21	ACHE	enzyme activity, inhibitor			1 ± 0.2 nM
Oc1cc(-c2ccccc2)ccc1Oc1ccc(Cl)cc1Cl	inhA	inhibitor			> 10000 nM

Repeated from above:
Structure (SMILES)	target	assay	test system	setting	IC50
CCC(C)Cc1ccc(Oc2ccc(Cl)cc2Cl)c(O)c1 (stereo not drawn)	inhA	inhibitor			130 ± 56 nM
Oc1cc(-c2ccccc2)ccc1Oc1ccc(Cl)cc1Cl	inhA	inhibitor			> 10000 nM
CC[C@H](C)[C@@H]1NC(=O)[C@H](Cc2c[nH]cn2)NC(=O)[C@H](Cc2ccc(O)cc2)NC(=O)[C@H](Cc2ccc(O)cc2)NC(=O)[C@H](C(C)C)NC(=O)[C@H](Cc2c[nH]cn2)NC(=O)[C@H](CCCCN)NC(=O)[C@H]([C@@H](C)O)NC(=O)[C@H](Cc2ccc(O)cc2)NC(=O)CSC[C@@H](C(N)=O)NC(=O)[C@H](Cc2ccc(O)cc2)NC(=O)[C@H](C(C)C)NC(=O)[C@H](CC(C)C)NC(=O)[C@H](Cc2ccc(O)cc2)NC(=O)[C@H]([C@@H](C)CC)NC(=O)[C@H]([C@@H](C)O)NC1=O	Procathepsin L (CTSL, Homo sapiens, UniProt P07711)	enzyme activity, inhibitor			5700 ± 450 nM
CC(C)CCc1ccc(Oc2ccc(Cl)cc2Cl)c(O)c1	inhA	inhibitor			63 ± 9 nM
